Experimental data of several laboratories.
A part holds a random share of what one study measured.
Sequence of UniProt P10398 (whole entry, looked up): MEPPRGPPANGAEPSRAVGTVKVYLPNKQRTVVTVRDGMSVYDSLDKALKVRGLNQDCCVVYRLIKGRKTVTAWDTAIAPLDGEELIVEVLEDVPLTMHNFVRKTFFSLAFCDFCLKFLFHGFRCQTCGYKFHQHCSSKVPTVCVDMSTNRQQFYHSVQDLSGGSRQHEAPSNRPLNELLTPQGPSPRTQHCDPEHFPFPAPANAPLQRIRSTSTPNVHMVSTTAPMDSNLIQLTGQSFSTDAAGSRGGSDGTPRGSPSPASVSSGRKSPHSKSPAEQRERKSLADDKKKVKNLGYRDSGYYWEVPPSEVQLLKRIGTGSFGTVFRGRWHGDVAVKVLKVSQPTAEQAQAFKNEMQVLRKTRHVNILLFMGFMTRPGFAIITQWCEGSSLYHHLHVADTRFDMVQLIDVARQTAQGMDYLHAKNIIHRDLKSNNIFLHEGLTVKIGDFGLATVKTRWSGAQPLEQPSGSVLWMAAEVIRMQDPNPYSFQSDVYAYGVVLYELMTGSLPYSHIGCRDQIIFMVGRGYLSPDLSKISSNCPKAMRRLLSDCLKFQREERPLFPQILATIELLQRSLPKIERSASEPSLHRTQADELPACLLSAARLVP
Sequence of UniProt Q02763 (whole entry, looked up): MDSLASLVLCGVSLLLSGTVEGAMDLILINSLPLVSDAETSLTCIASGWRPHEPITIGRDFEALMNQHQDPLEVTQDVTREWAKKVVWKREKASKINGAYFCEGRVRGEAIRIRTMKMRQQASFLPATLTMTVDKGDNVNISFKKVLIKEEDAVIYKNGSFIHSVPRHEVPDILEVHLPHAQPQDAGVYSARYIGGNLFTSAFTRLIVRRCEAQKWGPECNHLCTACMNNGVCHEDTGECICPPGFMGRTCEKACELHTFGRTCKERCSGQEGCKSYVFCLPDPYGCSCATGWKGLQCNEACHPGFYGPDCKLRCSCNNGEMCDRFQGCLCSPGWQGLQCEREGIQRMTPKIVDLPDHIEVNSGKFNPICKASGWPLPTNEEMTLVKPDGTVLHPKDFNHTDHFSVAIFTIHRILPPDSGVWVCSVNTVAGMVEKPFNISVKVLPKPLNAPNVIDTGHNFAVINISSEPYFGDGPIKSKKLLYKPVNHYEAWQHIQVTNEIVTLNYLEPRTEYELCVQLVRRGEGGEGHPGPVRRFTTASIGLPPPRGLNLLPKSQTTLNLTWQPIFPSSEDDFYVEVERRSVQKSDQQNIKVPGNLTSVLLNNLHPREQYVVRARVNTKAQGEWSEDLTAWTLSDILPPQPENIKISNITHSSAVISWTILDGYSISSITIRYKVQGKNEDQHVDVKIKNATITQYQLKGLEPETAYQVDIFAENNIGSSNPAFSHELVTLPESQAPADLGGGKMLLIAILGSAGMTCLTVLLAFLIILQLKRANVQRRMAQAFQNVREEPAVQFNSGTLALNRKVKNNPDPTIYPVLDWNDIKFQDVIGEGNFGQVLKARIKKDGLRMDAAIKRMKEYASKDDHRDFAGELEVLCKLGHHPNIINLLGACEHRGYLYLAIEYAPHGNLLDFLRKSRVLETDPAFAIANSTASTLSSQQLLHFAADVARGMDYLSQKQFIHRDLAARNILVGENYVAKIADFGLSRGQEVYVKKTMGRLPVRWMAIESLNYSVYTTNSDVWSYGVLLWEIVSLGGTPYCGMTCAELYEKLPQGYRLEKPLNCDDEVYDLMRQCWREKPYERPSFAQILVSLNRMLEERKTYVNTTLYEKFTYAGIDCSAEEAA
Sequence of UniProt Q04912 (whole entry, looked up): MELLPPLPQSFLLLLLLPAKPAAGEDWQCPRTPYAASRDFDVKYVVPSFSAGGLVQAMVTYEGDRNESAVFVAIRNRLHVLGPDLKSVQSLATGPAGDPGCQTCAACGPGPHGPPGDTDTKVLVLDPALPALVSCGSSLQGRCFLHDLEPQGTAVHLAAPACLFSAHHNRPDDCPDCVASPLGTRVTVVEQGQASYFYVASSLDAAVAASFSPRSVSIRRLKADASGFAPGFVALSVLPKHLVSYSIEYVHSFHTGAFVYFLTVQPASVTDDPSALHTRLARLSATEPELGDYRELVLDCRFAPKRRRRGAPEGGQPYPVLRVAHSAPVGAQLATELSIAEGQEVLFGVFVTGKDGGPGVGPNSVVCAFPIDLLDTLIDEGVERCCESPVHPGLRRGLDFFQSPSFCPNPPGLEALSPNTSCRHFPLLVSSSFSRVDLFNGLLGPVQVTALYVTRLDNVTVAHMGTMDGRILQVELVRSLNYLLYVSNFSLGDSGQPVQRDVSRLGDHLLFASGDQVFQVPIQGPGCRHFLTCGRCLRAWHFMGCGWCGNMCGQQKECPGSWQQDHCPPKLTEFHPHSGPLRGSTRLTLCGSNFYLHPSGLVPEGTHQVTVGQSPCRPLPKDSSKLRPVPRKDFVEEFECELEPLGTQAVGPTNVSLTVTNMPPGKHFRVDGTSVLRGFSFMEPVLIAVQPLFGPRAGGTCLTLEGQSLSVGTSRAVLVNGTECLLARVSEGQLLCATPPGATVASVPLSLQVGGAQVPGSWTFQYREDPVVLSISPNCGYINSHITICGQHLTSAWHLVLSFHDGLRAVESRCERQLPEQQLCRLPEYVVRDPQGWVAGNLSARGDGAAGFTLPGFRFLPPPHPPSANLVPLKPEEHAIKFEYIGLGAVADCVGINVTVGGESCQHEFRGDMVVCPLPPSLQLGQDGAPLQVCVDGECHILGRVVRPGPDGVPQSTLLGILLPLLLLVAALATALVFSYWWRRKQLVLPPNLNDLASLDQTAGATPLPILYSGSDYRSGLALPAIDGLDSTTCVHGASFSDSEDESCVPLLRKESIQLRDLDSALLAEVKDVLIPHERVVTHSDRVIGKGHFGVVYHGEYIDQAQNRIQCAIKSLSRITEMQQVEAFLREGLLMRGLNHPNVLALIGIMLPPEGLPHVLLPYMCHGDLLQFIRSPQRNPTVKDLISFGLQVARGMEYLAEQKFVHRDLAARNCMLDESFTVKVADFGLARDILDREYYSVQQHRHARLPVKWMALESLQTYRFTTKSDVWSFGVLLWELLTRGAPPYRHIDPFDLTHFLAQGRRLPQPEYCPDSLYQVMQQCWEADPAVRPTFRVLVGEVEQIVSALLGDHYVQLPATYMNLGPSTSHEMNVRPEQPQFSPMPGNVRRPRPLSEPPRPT
Sequence of UniProt P52333 (whole entry, looked up): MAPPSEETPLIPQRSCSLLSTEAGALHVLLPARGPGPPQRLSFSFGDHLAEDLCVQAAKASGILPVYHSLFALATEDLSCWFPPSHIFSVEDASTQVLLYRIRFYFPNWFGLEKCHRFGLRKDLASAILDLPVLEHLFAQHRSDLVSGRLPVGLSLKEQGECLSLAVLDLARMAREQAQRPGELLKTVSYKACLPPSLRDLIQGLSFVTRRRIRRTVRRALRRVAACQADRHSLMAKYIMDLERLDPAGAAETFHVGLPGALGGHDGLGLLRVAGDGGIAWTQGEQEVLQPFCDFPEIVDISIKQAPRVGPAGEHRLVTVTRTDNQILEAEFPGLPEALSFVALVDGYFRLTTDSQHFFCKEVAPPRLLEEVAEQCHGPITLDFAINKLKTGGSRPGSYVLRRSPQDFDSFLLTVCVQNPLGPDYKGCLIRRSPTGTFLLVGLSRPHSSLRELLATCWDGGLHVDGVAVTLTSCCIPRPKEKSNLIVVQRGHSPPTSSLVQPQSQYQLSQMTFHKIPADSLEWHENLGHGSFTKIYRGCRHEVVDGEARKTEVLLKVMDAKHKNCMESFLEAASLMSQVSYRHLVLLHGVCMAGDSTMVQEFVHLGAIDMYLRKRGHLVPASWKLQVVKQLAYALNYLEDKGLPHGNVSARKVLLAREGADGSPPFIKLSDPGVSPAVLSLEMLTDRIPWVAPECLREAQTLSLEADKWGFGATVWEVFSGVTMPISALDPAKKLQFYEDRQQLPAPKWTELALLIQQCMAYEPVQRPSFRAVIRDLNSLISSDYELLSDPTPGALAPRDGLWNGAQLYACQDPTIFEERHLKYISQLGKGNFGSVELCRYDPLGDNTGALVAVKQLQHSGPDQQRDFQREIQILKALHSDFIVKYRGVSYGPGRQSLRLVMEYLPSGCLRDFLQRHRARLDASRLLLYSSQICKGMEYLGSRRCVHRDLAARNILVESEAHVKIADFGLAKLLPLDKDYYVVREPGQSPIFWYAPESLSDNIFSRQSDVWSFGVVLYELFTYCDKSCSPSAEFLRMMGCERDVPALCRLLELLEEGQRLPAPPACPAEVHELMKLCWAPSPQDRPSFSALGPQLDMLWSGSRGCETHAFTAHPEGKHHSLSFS
Sequence of UniProt P49841 (whole entry, looked up): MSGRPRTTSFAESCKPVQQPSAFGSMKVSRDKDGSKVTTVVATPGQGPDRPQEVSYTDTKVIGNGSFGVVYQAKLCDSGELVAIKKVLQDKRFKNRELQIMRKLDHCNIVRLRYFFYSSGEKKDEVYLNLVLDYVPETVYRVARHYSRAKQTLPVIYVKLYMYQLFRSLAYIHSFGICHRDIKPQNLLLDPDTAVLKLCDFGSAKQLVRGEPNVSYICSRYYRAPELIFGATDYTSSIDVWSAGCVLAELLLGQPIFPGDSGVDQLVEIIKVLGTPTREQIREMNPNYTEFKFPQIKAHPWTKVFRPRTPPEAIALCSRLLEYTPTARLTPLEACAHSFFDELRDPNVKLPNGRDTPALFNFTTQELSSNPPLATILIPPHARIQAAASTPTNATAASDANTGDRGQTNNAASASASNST
Sequence of UniProt P49137 (whole entry, looked up): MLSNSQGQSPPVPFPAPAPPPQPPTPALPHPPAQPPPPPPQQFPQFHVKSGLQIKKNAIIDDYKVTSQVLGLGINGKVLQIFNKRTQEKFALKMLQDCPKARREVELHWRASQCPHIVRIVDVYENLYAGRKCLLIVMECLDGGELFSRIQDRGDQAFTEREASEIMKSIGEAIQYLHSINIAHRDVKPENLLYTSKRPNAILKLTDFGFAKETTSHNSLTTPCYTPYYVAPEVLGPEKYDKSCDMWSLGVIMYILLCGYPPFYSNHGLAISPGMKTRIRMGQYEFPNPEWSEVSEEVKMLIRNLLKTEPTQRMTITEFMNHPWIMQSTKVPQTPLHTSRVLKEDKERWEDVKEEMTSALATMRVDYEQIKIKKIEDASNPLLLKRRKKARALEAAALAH

Sample 1
SMILES: CC(=O)O/N=C1/C(c2c(O)[nH]c3cc(Br)ccc23)=Nc2ccccc21
Effect on: enzyme activity
Mode: inhibitor
Concentration: 0.5 µM
Baseline: control
| target | remaining activity [%] |
| --- | --- |
| EPHA3 (Homo sapiens, UniProt P29320) | 88.2 |
| FGFR3 (Homo sapiens, UniProt P22607) | 46.5 |
| TBK1 (Homo sapiens, UniProt Q9UHD2) | 78.5 |
| MAPK3 (Homo sapiens, UniProt P27361) | 93.7 |
| JAK3 (Homo sapiens, UniProt P52333) | 107 |
| MAPKAPK2 (Homo sapiens, UniProt P49137) | 109 |
| ARAF (Homo sapiens, UniProt P10398) | 97.2 |
| TEK (Homo sapiens, UniProt Q02763) | 106 |
| CSNK1G2 (Homo sapiens, UniProt P78368) | 89.7 |
| FGFR1 (Homo sapiens, UniProt P11362) | 68.8 |
| TAOK2 (Homo sapiens, UniProt Q9UL54) | 84.4 |
| MST1R (Homo sapiens, UniProt Q04912) | 92.8 |
| GSK3B (Homo sapiens, UniProt P49841) | 14.3 |
| MAP3K5 (Homo sapiens, UniProt Q99683) | 95.8 |

Sample 2
Cell line: HaCaT
Concentration: 100 µM
Time: 18 h
| SMILES | viability [%] |
| --- | --- |
| CC1Cc2ccccc2N1NC(=O)c1ccc(Cl)c(S(N)(=O)=O)c1 (stereo not shown) | 100 |
| COc1cc(OC)c(C(=O)CCCN2CCCC2)c(OC)c1 | 107 |
| COc1cc(C[C@H]2C(=O)OC[C@@H]2Cc2ccc(OC)c(OC)c2)ccc1O | 115 |
| O=C(OCc1ccccc1)c1ccccc1 | 47.4 |
| CCCCCCCCCC[C@H](C(=O)O)[C@]1(C(=O)O)CCC(=O)O1 | 100 |
| CCCCC[C@H](O)/C=C/[C@H]1[C@H](O)CC(=O)[C@@H]1CCCCCCC(=O)O | 97.7 |
| CC(C)(C)NC(=O)[C@H]1CC[C@H]2[C@@H]3CC[C@H]4NC(=O)C=C[C@]4(C)[C@H]3CC[C@]12C | 91.8 |

Sample 3
Host: mouse
Matrix: microsomes or S9
Concentration: 2 µM
Time: 0.5 h
| Structure (SMILES) | remaining compound [%] |
| --- | --- |
| CCCC(=O)CSc1[nH]c(=O)cc(C)c1C#N | > 99 |
| CCOC(=O)c1c2ccccc2n2/c(=C\c3ccccc3C)c3ccccc3c12 | 56.7 |
| CC1(C)C(=O)Nc2ccc(S(=O)(=O)Nc3noc(-c4ccsc4)n3)cc21 | > 100 |
| CCC(C)N(CC(=O)N1CCN(c2ccc(-c3ccc(C)cc3)nn2)CC1)C(=O)c1ccccc1F (stereo not shown) | 0.395 |
| CCCN1CCc2[nH]cnc2C12CCN(C(=O)[C@@H]1C[C@@H](O)CN1)CC2 | 87 |
| Cc1ccsc1CN(Cc1cn2ccccc2c1C#N)C(C)C | 57.9 |

Further values, each from its own experiment
| Structure (SMILES) | cell line | conditions | how to read | quantity | value |
| --- | --- | --- | --- | --- | --- |
| CC(=O)C1=C(C)N(c2cccc(C(F)(F)F)c2)C(=O)N[C@@H]1c1ccc(C#N)nc1 | patient-derived normal-adjacent epithelium organoids | 1 µM | baseline: DMSO control | viability | 98.9% |

Repeated from above (sample 3):
| Structure (SMILES) | remaining compound [%] |
| --- | --- |
| CC1(C)C(=O)Nc2ccc(S(=O)(=O)Nc3noc(-c4ccsc4)n3)cc21 | > 100 |
| CCCN1CCc2[nH]cnc2C12CCN(C(=O)[C@@H]1C[C@@H](O)CN1)CC2 | 87 |
